Measurements gathered from unrelated publications.
Protocols differ between the studies behind these lines. Numbers after ± are the reported error.
Cell line: RAW264.7
Technique: MTT

| Structure (SMILES) | observed | concentration | time | setting | added | viability [%] |
| --- | --- | --- | --- | --- | --- | --- |
| CC(C)=CCc1cc(-c2coc3cc(O)c(CC=C(C)C)c(O)c3c2=O)ccc1O | – | concentration not given | – | – | – | 3.8 ± 0.1 |
| Cc1ccc(C(C)C)c(O)c1 | cell growth or viability | 25 µM | 24 h | – | – | 98 |
| COc1cc2c(cc1O)[C@]1(O)C(=O)c3c(O)cc4c(c3O[C@@H]1CO2)C=CC(C)(C)O4 | cell growth or viability | 25 µg/mL | 24 h | – | – | 27 |
| CC(=O)O[C@@H]1CC[C@@]2(C)C(CC[C@]3(C)C2C(=O)C=C2C4[C@@H](C)[C@H](C)CC[C@]4(C)CC[C@]23C)[C@@]1(C)C(=O)OCc1cn(CC(=O)OC2CC(C)CCC2C(C)C)nn1 (stereo partly shown) | cell growth or viability | 25 µM | 24 h | – | – | 89 |
| COc1cccc(NCc2cn(-c3ccccc3)nc2-c2ccc(OCc3ccccc3)cc2)c1 | – | 20 µM | 24 h | – | LPS | 70 ± 2.37 |
| CC(C)[C@@H]1CC[C@@H](C)C[C@H]1O | cell growth or viability | 25 µM | 24 h | – | – | 95 |
| Fc1ccc(NCc2cn(-c3ccccc3)nc2-c2ccc(OCc3ccccc3)cc2)cc1 | – | 20 µM | 24 h | – | LPS | 73 ± 1.18 |
| COc1c(CC=C(C)C)c(O)cc2c1[C@@H]1Oc3c(ccc(O)c3CC=C(C)C)[C@@H]1CO2 | – | concentration not given | – | – | – | 2.9 ± 0.6 |
| CC(=O)O[C@@H]1CC[C@@]2(C)C(CC[C@]3(C)C2C(=O)C=C2C4[C@@H](C)[C@H](C)CC[C@]4(C)CC[C@]23C)[C@@]1(C)C(=O)N/N=C\C=Cc1ccccc1 (stereo partly shown) | cell growth or viability | 25 µM | 24 h | – | – | 102 |
| COc1ccc2c(c1CC=C(C)C)O[C@H]1c3cc(CC=C(C)C)c(O)cc3OC[C@@H]21 | – | concentration not given | – | – | – | 3.1 ± 0.9 |
| COc1cc(/C=N\NC(=O)[C@]2(C)C3CC[C@]4(C)C(C(=O)C=C5C6[C@@H](C)[C@H](C)CC[C@]6(C)CC[C@]54C)[C@@]3(C)CC[C@H]2OC(C)=O)cc(OC)c1OC (stereo partly shown) | cell growth or viability | 25 µM | 24 h | – | – | 95 |
| CC(C)=CCc1c(O)c(CC=C(C)C)c2occ(-c3ccc(O)c(O)c3)c(=O)c2c1O | cell growth or viability | 25 µg/mL | 24 h | – | – | 34.5 |
| CC(=O)O[C@@H]1CC[C@@]2(C)C(CC[C@]3(C)C2C(=O)C=C2C4[C@@H](C)[C@H](C)CC[C@]4(C)CC[C@]23C)[C@@]1(C)C(=O)OCC(=O)O[C@@H]1C[C@H](C)CC[C@H]1C(C)C (stereo partly shown) | cell growth or viability | 25 µM | 24 h | – | – | 93 |
| CC(C)=CCc1cc2c(cc1O)OCc1c-2oc2c(CC=C(C)C)c(O)ccc12 | – | concentration not given | – | – | – | 97.3 ± 0.3 |
| CC(C)=CCc1cc(-c2coc3cc(O)c(CC=C(C)C)c(O)c3c2=O)ccc1O | cell growth or viability | 12.5 µg/mL | 24 h | – | – | 151 |
| O=C1CCNCN1Cc1ccccc1 | cell growth or viability | 200 µM | 24 h | – | – | 99.5 |
| CC(=O)O[C@@H]1CC[C@@]2(C)C(CC[C@]3(C)C2C(=O)C=C2C4[C@@H](C)[C@H](C)CC[C@]4(C)CC[C@]23C)[C@@]1(C)C(=O)N/N=C\c1ccc2c(c1)OCO2 (stereo partly shown) | cell growth or viability | 25 µM | 24 h | – | – | 98 |
| COc1ccc2c(oc3c4ccc(O)cc4oc(=O)c23)c1CC=C(C)C | – | concentration not given | – | – | – | 98.6 ± 1.6 |
| CC(C)=CCc1c2c(c(O)c3c(=O)c(-c4ccc(O)cc4)coc13)CC(C(C)(C)O)O2 (stereo not shown) | cell growth or viability | 50 µg/mL | 24 h | – | – | 5.62 |
| Fc1ccccc1NCc1cn(-c2ccccc2)nc1-c1ccc(OCc2ccccc2)cc1 | – | 20 µM | 24 h | – | LPS | 65 ± 2.45 |
| COc1ccc(-c2coc3c(CC=C(C)C)c(O)c(CC=C(C)C)c(O)c3c2=O)cc1O | cell growth or viability | 6.25 µg/mL | 24 h | – | – | 97.2 |
| NS(=O)(=O)c1ccc(-n2cc(CNc3ccccc3)c(-c3ccc(OCc4ccccc4)cc3)n2)cc1 | – | 20 µM | 24 h | – | LPS | 59 ± 2.84 |
| COc1ccc2c(c1CC=C(C)C)O[C@H]1c3cc4c(cc3OC[C@@]21O)OC(C)(C)C=C4 | – | concentration not given | – | – | – | 95.1 ± 0.7 |
| NS(=O)(=O)c1ccc(-n2cc(CNc3ccccc3Cl)c(-c3ccc(OCc4ccccc4)cc3)n2)cc1 | – | 20 µM | 24 h | 10% FBS | LPS | > 90 |
| CC(=O)O[C@@H]1CC[C@@]2(C)C(CC[C@]3(C)C2C(=O)C=C2C4[C@@H](C)[C@H](C)CC[C@]4(C)CC[C@]23C)[C@@]1(C)c1nnc(SCC(=O)Oc2cc(C)ccc2C(C)C)o1 (stereo partly shown) | cell growth or viability | 25 µM | 24 h | – | – | 104 |

Excerpt of the above:
| Structure (SMILES) | observed | concentration | time | setting | added | viability [%] |
| --- | --- | --- | --- | --- | --- | --- |
| CC(=O)O[C@@H]1CC[C@@]2(C)C(CC[C@]3(C)C2C(=O)C=C2C4[C@@H](C)[C@H](C)CC[C@]4(C)CC[C@]23C)[C@@]1(C)C(=O)OCC(=O)O[C@@H]1C[C@H](C)CC[C@H]1C(C)C (stereo partly shown) | cell growth or viability | 25 µM | 24 h | – | – | 93 |
| Fc1ccc(NCc2cn(-c3ccccc3)nc2-c2ccc(OCc3ccccc3)cc2)cc1 | – | 20 µM | 24 h | – | LPS | 73 ± 1.18 |
| CC(C)=CCc1c2c(c(O)c3c(=O)c(-c4ccc(O)cc4)coc13)CC(C(C)(C)O)O2 (stereo not shown) | cell growth or viability | 50 µg/mL | 24 h | – | – | 5.62 |
